Results of several laboratories.
Numbered parts are unrelated; each lists some results of a single study.

Study 1 — cell line: HEK-293T; effect on: pseudovirus infection; method: FDA-approved drug library screen; organism: VSV pseudotyped with SARS-CoV-2 spike; concentration: 10 µM; time: 16 h; baseline: vehicle-treated
| Compound | GFP-positive cells [%] |
| --- | --- |
| CCn1cc(C(=O)O)c(=O)c2cc(F)c(N3CCNC(C)C3)c(F)c21 (stereo not shown) | 69 |
| C[C@@H]1C/C=C/C=C/C=C/C=C/[C@H](O[C@@H]2O[C@H](C)[C@@H](O)[C@H](N)[C@@H]2O)C[C@@H]2O[C@](O)(C[C@@H](O)C[C@H]3O[C@@H]3/C=C/C(=O)O1)C[C@H](O)[C@H]2C(=O)O | 86 |
| O=c1cc[nH]c(=O)[nH]1 | 71.6 |
| CC(C)N1CCN(c2ccc(OCC3COC(Cn4cncn4)(c4ccc(Cl)cc4Cl)O3)cc2)CC1 (stereo not shown) | 63.7 |

Study 2 — method: protein-binding microarray; form: double-stranded DNA, one strand shown; matrix: in vitro; concentration: 250 nM; setting: 60-bp whole probe; together with: salmon DNA 0.4 mg/ml; baseline: random background probes; reading: higher = stronger binding; constant ends, left off below: GCCTAGCAC … GTCTTGATTCGCTTGACGCTGCTG
Target: Interferon regulatory factor 5, full length, phosphomimetic (IRF5, Homo sapiens, UniProt Q13568-2, residues 1-514, K96S/S451D/S453D/S456D/S462D)
| Sequence | log fluorescence [z-score] |
| --- | --- |
| TTAGGTTTCCTTTTCTTTTAGTGCTAG | 1.57 |
| TCATTTTTCATTTTGTTACTGTGCTAG | 2.4 |
| GTAGGTTTCGGGACTGGGTTAGTGCTA | 5.83 |
| AAGAAGCTTCCTCTCTGCCAGTGCTAG | -0.186 |
| GACGGTTTTGACTATCGGGACGTGCTA | 1.72 |
| TTAGATTGCAGACTGGATTAGTGCTAG | -0.332 |
| AATATTCTGCTTTGCAATAAGTGCTAG | 0.64 |
| TCATTTCTACGTCTGATACTGTGCTAG | 1.38 |

Study 3 — action: inhibitor; concentration: 20 µM
Target: Replicase polyprotein 1ab, nsp13 helicase (rep, Severe acute respiratory syndrome coronavirus 2, UniProt P0DTD1)
| SMILES | inhibition [%] |
| --- | --- |
| CN1CCCC(CN2c3ccccc3Sc3ccccc32)C1 (stereo not shown) | 8.14 |
| CCc1ccc(Cc2ccc3c(c2)[C@]2(OC3)O[C@H](CO)[C@@H](O)[C@H](O)[C@H]2O)cc1 | 5.35 |
| CC[C@H](c1ccc(O)cc1)[C@@H](CC)c1ccc(O)cc1 | -0.7 |
| CN(C)CCCO[C@@H]1[C@H]2OC(C)(C)O[C@H]2O[C@@H]1[C@H](O)CO | -1.57 |
| CCOC(=O)[C@H](CCc1ccccc1)N[C@@H](C)C(=O)N1Cc2ccccc2C[C@H]1C(=O)O | 2.08 |
| CC(CC(c1ccccc1)c1ccccc1)NC(C)(C)C (stereo not shown) | -1.24 |
| CCCCCCCC/C=C\CCCCCCCC(=O)NCCO | -1.29 |
| COc1cc(C(=O)NS(=O)(=O)c2ccccc2C)ccc1Cc1cn(C)c2ccc(NC(=O)OC3CCCC3)cc12 | 39.5 |
| CCNC(=O)[C@@H]1CCCN1C(=O)[C@H](CCCNC(=N)N)NC(=O)[C@H](CC(C)C)NC(=O)[C@@H](CC(C)C)NC(=O)[C@H](Cc1ccc(O)cc1)NC(=O)[C@H](CO)NC(=O)[C@H](Cc1c[nH]c2ccccc12)NC(=O)[C@H](Cc1c[nH]cn1)NC(=O)[C@@H]1CCC(=O)N1 | 2.18 |
| COc1cc2ncnc(Nc3ccc(F)c(Cl)c3)c2cc1NC(=O)/C=C/CN1CCCCC1 | 3.23 |
| NC(N)=NCCC[C@@H](N)C(=O)N[C@@H](CCCN=C(N)N)C(=O)N1CCC[C@H]1C(=O)N1C[C@H](O)C[C@H]1C(=O)NCC(=O)N[C@@H](Cc1cccs1)C(=O)N[C@@H](CO)C(=O)N1Cc2ccccc2C[C@@H]1C(=O)N1[C@H](C(=O)N[C@@H](CCCN=C(N)N)C(=O)O)C[C@@H]2CCCC[C@@H]21 | -6.08 |
| CC(C)(C)c1ccc(S(=O)(=O)Nc2ccc(Cl)cc2C(=O)c2cc[n+]([O-])cc2)cc1 | 2.89 |
| CN(Cc1ccccc1)C(=O)[C@H](Cc1ccc2ccccc2c1)NC(=O)[C@@H]1C[C@@H](O)CN1C(=O)c1cn(C)c2ccccc12 | 6.56 |
| O=C(Nc1ccc([N+](=O)[O-])cc1O)Nc1ccccc1Br | 3.57 |
| CC(C)C[C@H](NC(=O)CNC(=O)c1cc(Cl)ccc1Cl)B1OC(=O)CC(CC(=O)O)(C(=O)O)O1 (stereo partly shown) | 4.82 |
| O=C(O)[C@]1(Cc2cccc(Nc3nccs3)n2)CC[C@@H](Oc2cccc(Cl)c2F)CC1 | -0.59 |
| COc1ccc(C(=O)c2ccc(C)cc2)c(O)c1 | 6.6 |
| C[C@H]1CO[C@@H]2Cn3cc(C(=O)NCc4ccc(F)cc4F)c(=O)c(O)c3C(=O)N12 | 4.38 |
| CN1[C@@H]2CC[C@H]1C[C@@H](OC(=O)C(CO)c1ccccc1)C2 (stereo partly shown) | 5.21 |
| Cc1c(C)c(NCC(=O)N(C)C2CCN(Cc3ccc(C(N)=O)cc3)CC2)c(C)c(C)c1N | 8.46 |
| OC[C@@H](O)CN1CCN(c2ccccc2)CC1 | 6.86 |
| CN1CCOC(c2ccccc2)c2ccccc2C1 (stereo not shown) | 6.15 |
| O=C1CCCC(=O)C1C(=O)c1ccc(C(F)(F)F)cc1[N+](=O)[O-] | 2.7 |
| O[C@H](CNC[C@@H](O)[C@H]1CCc2cc(F)ccc2O1)[C@@H]1CCc2cc(F)ccc2O1 | 7.86 |
| N#Cc1c(N)nc(SCc2ncc[nH]2)c(C#N)c1-c1ccc(O)cc1 | 7.46 |

Study 4 — method: protein-binding microarray; form: double-stranded DNA, one strand shown; matrix: in vitro; concentration: not given; reading: higher = stronger binding
Target: Transcription factor SOX-2, HMG box (SOX2, Homo sapiens, UniProt P48431, residues 19-118)
Sequence of UniProt P48431 (19-118, looked up): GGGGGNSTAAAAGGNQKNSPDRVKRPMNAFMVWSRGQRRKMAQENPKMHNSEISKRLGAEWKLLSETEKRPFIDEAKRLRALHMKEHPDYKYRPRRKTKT
Setting: k-mer, scored over probes, only values ≥0.25
| Sequence | E-score |
| --- | --- |
| ATTCAAC | 0.359 |
| ACAATAT | 0.452 |
| TATTTGA | 0.253 |
| AATCAAT | 0.381 |
| CAATGGG | 0.337 |
| ATTGACG | 0.366 |

Study 5 — method: RNA Bind-n-Seq; form: RNA; matrix: in vitro; concentration: not given; baseline: input RNA pool; reading: higher = stronger binding
Target: RING finger protein unkempt homolog, zinc fingers 1-6, GST-SBP tag (UNK, Homo sapiens, UniProt Q9C0B0, residues 30-357)
Sequence of UniProt Q9C0B0 (30-357, looked up): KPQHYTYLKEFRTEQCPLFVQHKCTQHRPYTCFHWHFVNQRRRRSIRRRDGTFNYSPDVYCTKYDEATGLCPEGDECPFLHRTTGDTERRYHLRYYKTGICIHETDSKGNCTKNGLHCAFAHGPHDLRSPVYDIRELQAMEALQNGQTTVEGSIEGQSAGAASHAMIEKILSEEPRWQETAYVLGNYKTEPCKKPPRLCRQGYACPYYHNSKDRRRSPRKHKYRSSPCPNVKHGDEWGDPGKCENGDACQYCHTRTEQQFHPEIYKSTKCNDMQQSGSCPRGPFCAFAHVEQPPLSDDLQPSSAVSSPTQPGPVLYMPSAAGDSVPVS
Setting: RNA with constant flanks, human and mouse sites, ends assumed
Constant ends, left off below: GGGAGUUCUACAGUCCGACGAUC … CAACAGAGGAUUGAGCAUCA
| Sequence | bound/input enrichment |
| --- | --- |
| AUGCAAAAUUUUGGGUUGAUGAUAGCAGAUCCUAUCUGUUCGAUUCUUAUAGCCAUUCUUAUAGUUGUAAGUGUUAUUCCACUUUUAAGAGAGUCUGUUGGAAUAUUAAUGCAAAGAACU | 0.647 ratio |
| GCGGGCGGCCGGGCGCAGGGUCGCGGGAGGUGACGCGCGGCGAGGAUGGCGGCGCGGGGCCGGGGGCUGCUGCUGCUGACGCUGUCGGUGCUGUUGGCGGCGGGCCCCUCCGCCGCUGCG | 1.32 ratio |
| UGUAUUAAAUCAAUUUAUCACUGUUUAAAGCUUUGAAUAUCUGCAAUCUUUGCCAAGGUACUUUUUUAUUUAAAAAAAAACAUAACUUUGUAAAUAUUACCCUGUAAUAUUAUAUAUACU | 0.689 ratio |
| AGGAAAUUAUCAGUAUUAGGCAAAGAUGGAAAGCCAGUUUCUGAAUAUAUUAUAAAAACAGAUGAGAAUGUUCGUAAAGAAAACAACAAAAAAGAGAGACGCUUGUCAGCUGAAAAAACU | 0.511 ratio |
| CCAAAACAUGUGAUAUCCCUUUAACCUGUGCACAGUCUGGAGGCAGUUUUAUUGAGUGAGUAGUUGAGUGAGAGAACAAAAUGCCCAGCAAAACUUCUGGCCUCCACAGUUUGCUGAUGC | 0.17 ratio |
| CCAGACAAGAUCGAUUAUUUCUCCCUUGAUCCCCUCAACAUCAAACAGAACAACAAGCAGGCUUUUGAUGGCUUCGCUGCCCUGGGUGUGUCUCGGCUGCUCGAGCCGGCGGACAUGGUA | 0.191 ratio |
| CAGAAACUUUGUGAAAUUGAGAGGAUACAUUUUUUUCUAAGUAAGAAGAAAACCGAUGAACUUAGAAAUCUACACAAACUGCUUUACAACAGGCCAGGCACUGUGUCCUCAUUAAAGAAG | 0.161 ratio |
| AUACAUUCCAAGGGCGCCCAGGGUGAAGGCAACUCAGUAUCAUUGGAUUUUCAGAACUCAUAUAUGUCCAAACCAGACCCACCCCCAUCUCAGAGUAAACCAGCAACUUUCAGACCACCA | 0.296 ratio |

Other studies, line by line
| Compound | target | effect on | action | method | quantity | result |
| --- | --- | --- | --- | --- | --- | --- |
| Sc1nnnn1-c1ccccc1 | Replicase polyprotein 1ab, main protease (rep, Severe acute respiratory syndrome coronavirus 2, UniProt P0DTD1) | enzyme activity | inhibitor | fluorescence | IC50 | > 20 µM |

Excerpt of the above (study 5):
| Sequence | bound/input enrichment |
| --- | --- |
| AGGAAAUUAUCAGUAUUAGGCAAAGAUGGAAAGCCAGUUUCUGAAUAUAUUAUAAAAACAGAUGAGAAUGUUCGUAAAGAAAACAACAAAAAAGAGAGACGCUUGUCAGCUGAAAAAACU | 0.511 ratio |
| CCAAAACAUGUGAUAUCCCUUUAACCUGUGCACAGUCUGGAGGCAGUUUUAUUGAGUGAGUAGUUGAGUGAGAGAACAAAAUGCCCAGCAAAACUUCUGGCCUCCACAGUUUGCUGAUGC | 0.17 ratio |
| CCAGACAAGAUCGAUUAUUUCUCCCUUGAUCCCCUCAACAUCAAACAGAACAACAAGCAGGCUUUUGAUGGCUUCGCUGCCCUGGGUGUGUCUCGGCUGCUCGAGCCGGCGGACAUGGUA | 0.191 ratio |
| CAGAAACUUUGUGAAAUUGAGAGGAUACAUUUUUUUCUAAGUAAGAAGAAAACCGAUGAACUUAGAAAUCUACACAAACUGCUUUACAACAGGCCAGGCACUGUGUCCUCAUUAAAGAAG | 0.161 ratio |
